{"data": "Earlier results as cited in several papers", "note": "± marks the error that the study gave."}
{"Compound": "Cc1cc(C)c(CNC(=O)c2c(O)c(O)cc3c(O)c(-c4c(C)cc5c(C(=O)NCc6c(C)cc(C)cc6C)c(O)c(O)cc5c4O)c(C)cc23)c(C)c1", "target": "Bcl-xL (human)", "test": "binding, fluorescence polarization", "setting": "together with: fluorescent BH3 Bid peptide", "IC50 [µM]": "~1"}
{"Compound": "O=C(NS(=O)(=O)c1ccc(Br)cc1)c1cccc(C(=O)NS(=O)(=O)c2ccc(Br)cc2)n1", "target": "COX-2", "test": "enzyme activity, inhibitor", "IC50 [µM]": 5.6}
{"Compound": "CCc1ccc(Cn2cc(-c3cc(-c4ccc(Br)cc4)nc(N)n3)c3ccccc32)cc1", "target": "EGFR T790M human", "test": "inhibitor", "IC50 [µM]": 0.094}
{"Compound": "CCCC/C(=C(\\c1ccccc1)c1ccc(S(C)(=O)=O)cc1)c1ccccc1", "target": "cyclooxygenase-2", "test": "enzyme activity, inhibitor", "IC50 [µM]": 0.014}
{"Compound": "CN(C)CCCOc1ccc(C(=O)N2c3ccccc3Oc3ccccc32)cc1", "target": "CaV3.2", "test": "calcium influx, inhibitor, fluorescence imaging", "IC50 [µM]": 55}
{"Compound": "Cc1nn(-c2ccc(S(N)(=O)=O)cc2)c(C)c1-c1nnc(SCC(=NO)c2ccccc2)n1-c1ccccc1", "target": "cyclooxygenase-1", "test": "inhibitor", "IC50 [µM]": 9.81}
{"Compound": "CCn1c(SCC(=O)Nc2cccc(C(=O)/C=C/c3ccc(OC)cc3)c2)nc2ccccc2c1=O", "target": "EGFR", "test": "inhibitor", "IC50 [µM]": 2.3}
{"Compound": "CC(=O)c1sc(N/N=C(\\C)c2cccs2)nc1C", "target": "CDK2", "test": "enzyme activity, inhibitor", "IC50 [µM]": 0.39}
{"Compound": "Cc1cc(=O)[nH]c(=O)n1Cc1cn(-c2c3ccccc3nc3ccccc23)nn1", "target": "DNA topoisomerase IIβ", "test": "inhibitor", "IC50 [µM]": 0.52}
{"Compound": "O=C(Nc1cccc(OCC2CCCN2)n1)Nc1csc(-c2ccncc2)n1 (centres unmarked)", "target": "CDK1", "test": "ATP-competitive inhibitor", "IC50 [µM]": 0.008}
{"Compound": "C[C@H](N)[C@H]1O[C@@H](O[C@@H]2[C@@H](O)[C@H](N)C[C@H](N)[C@H]2O[C@H]2O[C@H]([C@@H](C)O)[C@@H](O)[C@H](O)[C@H]2N)[C@H](O)[C@@H]1O", "target": "rabbit ribosome", "test": "translation, inhibitor, measured: firefly luciferase", "test system": "rabbit reticulocyte lysate", "IC50 [µM]": "1.5 ± 0.08"}
{"Compound": "CC(=NN=C1SCC(=O)N1Cc1cn(C2OCC(O)C(O)C2O)nn1)c1cccnc1 (centres unmarked)", "target": "CDK2", "test": "enzyme activity, inhibitor", "IC50 [µM]": 0.18}
{"Compound": "O=C(O)CCCc1ccccc1", "target": "class IIa HDACs", "IC50 [µM]": "> 2000"}
{"Compound": "C/C(=N\\NC(=O)C1=C(O)c2ccccc2S(=O)(=O)N1Cc1nc2ccccc2[nH]1)c1ccccc1", "target": "ENPP3", "test": "inhibitor", "IC50 [µM]": 0.15}
{"Compound": "COc1nc(-c2cc(C)c(NC(C)c3ccc(F)cc3)nn2)ccc1-n1cnc(C)c1 (centres unmarked)", "target": "amyloid beta 42", "IC50 [µM]": 0.007}
{"Compound": "Cc1ccccc1/C=C/c1nc2ccccc2c(=O)[nH]1", "target": "Plasmodium falciparum ENT1", "test": "[3H]adenosine uptake", "test system": "PfENT1-expressing yeast", "IC50 [µM]": "0.0039 ± 0.0016"}
{"Compound": "O=C(O[C@@H]1Cc2c(O)cc(O)cc2O[C@@H]1c1cc(O)c(O)c(O)c1)c1cc(O)c(O)c(O)c1", "target": "PARP16 (GST-tagged)", "test": "enzyme activity, inhibitor", "IC50 [µM]": 14.5}
{"Compound": "COc1ccc(C2CC(c3ccc(OC)c(OC)c3)=NN2c2nc(-c3ccccc3)cs2)cc1 (centres unmarked)", "target": "EGFR", "test": "inhibitor", "IC50 [µM]": 0.009}
{"Compound": "CCOC(=O)C1=C(CSC(=S)N(C2CCCCC2)C2CCCCC2)N(C)C(=O)NC1c1ccccc1 (centres unmarked)", "target": "mTOR", "IC50 [µM]": 0.64}
{"Compound": "N[C@@H]1CCN1Cc1ccc(Oc2cccc(F)c2)cc1", "target": "MAO-B", "test": "inhibitor", "IC50 [µM]": 0.021}
{"Compound": "C/C=C/C#CC#C[C@@H](O)[C@@H](/C=C/CCCO)O[C@@H]1O[C@H](CO)[C@@H](O)[C@H](O)[C@H]1O", "target": "P2Y14 receptor", "test": "antagonist", "IC50 [µM]": 5.8}
{"Compound": "COc1ccccc1NC(=O)N[C@H](C(=O)Nc1ccc(C(=O)NO)cc1)c1ccccc1", "target": "HDAC", "test": "enzyme activity", "test system": "HeLa nuclear extract", "IC50 [µM]": 0.0075}
{"Compound": "O=C(O)C1CC1C(=O)c1ccc(Cl)c(Cl)c1 (centres unmarked)", "target": "kynurenine 3-monooxygenase", "test": "enzyme activity", "IC50 [µM]": 0.02}
{"Compound": "COc1ccc(C2CC(c3ccc(Nc4ccnc5cc(Cl)ccc45)cc3)=NN2c2nc(C)cs2)cc1OC (centres unmarked)", "target": "HER2", "IC50 [µM]": 0.08}
{"Compound": "NS(=O)(=O)Oc1ccc2c3c(c(=O)oc2c1)CCCCCC3", "target": "steroid sulfatase", "test system": "placental microsomes", "IC50 [µM]": 0.03}
{"Compound": "COC(=O)c1ccc2c(c1)NC(=O)/C2=C(\\Nc1ccc2c(c1)CCN2C(=O)CN1CCOCC1)c1ccccc1", "target": "PDGFR alpha", "test": "inhibitor", "IC50 [µM]": 0.026}
{"Compound": "N=C(N)NCCC[C@@H]1NC(=O)C[C@H]2NC(=O)[C@H](CNC(=O)[C@H](CC(=O)O)NC(=O)CNC1=O)N(Cc1ccccc1)C2=O", "target": "integrin αVβ5", "test": "binding, competitive binding", "setting": "together with: biotinylated vitronectin", "IC50 [µM]": "0.149 ± 0.025"}
{"Compound": "O=C(Nc1ccc2nc(NC(=O)c3ccco3)sc2c1)c1ccco1", "target": "Plasmodium falciparum ENT1", "test": "[3H]adenosine uptake", "test system": "PfENT1-expressing yeast", "IC50 [µM]": "0.003 ± 0.0013"}
{"Compound": "CC[C@H](C)[C@H](NC(C)=O)C(=O)N[C@H]1CSSC[C@@H](C(=O)N[C@H](C(N)=O)[C@@H](C)O)NC(=O)[C@H](CCCNC(=N)N)NC(=O)[C@H](Cc2c[nH]cn2)NC(=O)[C@H](C)NC(=O)CNC(=O)[C@H](Cc2c[nH]c3ccccc23)NC(=O)[C@H](CC(=O)O)NC(=O)[C@H](CCC(N)=O)NC(=O)[C@H](Cc2ccc3ccccc3c2)NC(=O)[C@H](C(C)C)NC1=O", "target": "complement classical pathway", "test": "ELISA", "IC50 [µM]": 0.55}
{"Compound": "CCc1ccc(CCNC(=O)c2c(O)c(O)cc3c(O)c(-c4c(C)cc5c(C(=O)NCCc6ccc(CC)cc6)c(O)c(O)cc5c4O)c(C)cc23)cc1", "target": "Bcl-2 (human)", "test": "binding, fluorescence polarization", "setting": "together with: fluorescent BH3 Bid peptide", "IC50 [µM]": "~1"}
{"Compound": "CCCCCCCCCc1nc2cc(Cl)ccc2c(=O)n1CCN", "target": "PqsR, Pseudomonas aeruginosa", "test": "inhibitor", "IC50 [µM]": 19.3}
{"Compound": "CCCCCCCCCCCCCC(=O)N[C@@H](CO)C(=O)N[C@H](C(=O)N[C@@H](Cc1ccc(O)cc1)C(=O)N[C@@H](CCCNC(=N)N)C(=O)N[C@@H](CCCNC(=N)N)C(=O)NCC(=O)N[C@@H](C)C(=O)N[C@@H](CCCNC(=N)N)C(=O)N[C@@H](CCCNC(=N)N)C(=O)N[C@@H](Cc1c[nH]c2ccccc12)C(=O)N[C@@H](CCCNC(=N)N)C(=O)N[C@@H](CCCCN)C(=O)N[C@@H](CC(C)C)C(=O)O)[C@@H](C)CC", "target": "atypical PKC", "test": "MARK2 phosphorylation, inhibitor", "IC50 [µM]": "~20"}
{"Compound": "COc1cc(F)c(C(C)C)cc1C1=C(CN2C(=O)O[C@H](c3cc(C(F)(F)F)cc(C(F)(F)F)c3)[C@@H]2C)CC(C)(C)CC1", "target": "CETP", "test": "ex vivo CETP activity, inhibitor", "test system": "dyslipidemic hamster", "setting": "single dose 0.1 to 30 mg/kg", "IC50 [µM]": 0.0314}
{"Compound": "Cc1ccc(/C=C(/NC(=O)c2ccccc2)C(=O)Nc2ccc(S(N)(=O)=O)cc2)o1", "target": "carbonic anhydrase IX", "test": "enzyme activity, inhibitor", "IC50 [µM]": 0.0083}
{"Compound": "Cc1ccc(C(=O)Nc2cc(C(=O)O)cc(-c3ccc(C4CCNCC4)cc3)c2)cc1", "target": "P2Y14 receptor", "test": "antagonist", "IC50 [µM]": 0.00177}
{"Compound": "Cc1cc(N)c2ccccc2[n+]1CCCCCCCCCCCCCC[n+]1c(C)cc(N)c2ccccc21", "target": "PKCα", "test": "enzyme activity, inhibitor", "IC50 [µM]": 2.6}
{"Compound": "c1ccc(-c2[nH]c3ccccc3c2C2CC(c3ccccn3)=NN2)cc1 (centres unmarked)", "target": "lipoxygenase", "test": "enzyme activity, inhibitor", "IC50 [µM]": "3.84 ± 0.01"}
{"Compound": "O=C(Nc1ccc(-c2nc3ncccc3o2)cc1)c1ccccc1Br", "target": "Plasmodium falciparum ENT1", "test": "[3H]adenosine uptake", "test system": "PfENT1-expressing yeast", "IC50 [µM]": "0.01 ± 0.0084"}
{"Compound": "N[C@@H](Cc1c[nH]c2ccc(OCc3ccccc3)cc12)C(=O)O", "target": "LAT1", "test": "His antiport", "test system": "proteoliposomes", "setting": "together with: [3H]-histidine", "IC50 [µM]": 1.48}
{"Compound": "CC(C)[C@H](NC(=O)[C@H](C)NC(=O)[C@H](Cc1c[nH]c2ccccc12)NC(=O)[C@H](Cc1c[nH]cn1)NC(=O)CCc1ccccc1)C(=O)N[C@H](C)C(=O)N[C@@H](Cc1c[nH]cn1)C(=O)N1CCC[C@@H]1CN[C@@H](Cc1ccccc1)C(N)=O", "target": "mouse GRP receptor", "test": "binding", "setting": "literature species comparison", "IC50 [µM]": "1e-06 ± 4e-07"}
{"Compound": "CSc1nc(-c2ccc(F)cc2)c(-c2ccnc(Nc3ccc(N)cc3)c2)[nH]1", "target": "p38α MAPK", "test": "inhibitor", "IC50 [µM]": 0.017}
{"Compound": "Cc1onc(-c2ccc(Cl)o2)c1-c1ccccc1", "target": "COX-2", "IC50 [µM]": "> 4"}
{"Compound": "COc1cc(N2CCNCC2)ccc1Nc1cc(N2CCC[C@H](C(=O)NCc3ccc(OC(F)(F)F)cc3)C2)ccn1", "target": "ROS1 G2032R", "test": "cell-based", "IC50 [µM]": 0.105}
{"Compound": "CC1(C)Cc2cc(Cl)ccc2C(NC(Cc2ccccc2)c2nc3ccccc3c(=O)[nH]2)=N1 (centres unmarked)", "target": "BACE1", "test": "AlphaScreen", "IC50 [µM]": 0.17}
{"Compound": "Cc1ccc(C2=NN=C(NC(=S)Nc3ccc(Cl)cc3)SC2)cc1", "target": "BRAF V600E", "IC50 [µM]": "0.178 ± 0.004"}
{"Compound": "CC1=NN(c2nc(-c3ccc(Cl)cc3)cs2)C(c2ccc(F)cc2)C1 (centres unmarked)", "target": "EGFR", "test": "kinase activity, inhibitor", "IC50 [µM]": 0.06}
{"Compound": "C[C@@H]1O[C@@H](CC(=O)O)CC2=C1C(=O)c1c(O)cccc1C2=O", "target": "DNMT3B", "IC50 [µM]": 0.5}
{"note": "Excerpt of the above:"}
{"Compound": "CC(=O)c1sc(N/N=C(\\C)c2cccs2)nc1C", "target": "CDK2", "test": "enzyme activity, inhibitor", "IC50 [µM]": 0.39}
{"Compound": "Cc1cc(=O)[nH]c(=O)n1Cc1cn(-c2c3ccccc3nc3ccccc23)nn1", "target": "DNA topoisomerase IIβ", "test": "inhibitor", "IC50 [µM]": 0.52}
{"Compound": "O=C(Nc1cccc(OCC2CCCN2)n1)Nc1csc(-c2ccncc2)n1 (centres unmarked)", "target": "CDK1", "test": "ATP-competitive inhibitor", "IC50 [µM]": 0.008}
{"Compound": "C[C@H](N)[C@H]1O[C@@H](O[C@@H]2[C@@H](O)[C@H](N)C[C@H](N)[C@H]2O[C@H]2O[C@H]([C@@H](C)O)[C@@H](O)[C@H](O)[C@H]2N)[C@H](O)[C@@H]1O", "target": "rabbit ribosome", "test": "translation, inhibitor, measured: firefly luciferase", "test system": "rabbit reticulocyte lysate", "IC50 [µM]": "1.5 ± 0.08"}
